Measured values from different studies.
Each line is one published result; not all experiments were run side by side.
CDK15: Cyclin-dependent kinase 15 (CDK15, Homo sapiens, UniProt Q96Q40)

Cc1cnc2nc1Nc1cccc(c1)COC/C=C/COCc1cc(ccc1OCCN1CCOCC1)N2 — remaining binding (CDK15; binding, competition with immobilised ligand; 0.1 µM): 100%
CCn1cc(C(=O)O)c(=O)c2c(N)c(F)c(NC3CCCCC3)cc21 — inhibition (Cyclin-dependent kinase 15, with cyclin B1 (CDK15, Homo sapiens, UniProt Q96Q40); kinase activity; 0.1 µM, added: ATP at Km): 52.7%
CCN1CCN(Cc2ccc(C(=O)Nc3ccc(C)c(NCc4cnc5[nH]ccc5c4OC)c3)cc2C(F)(F)F)CC1 — remaining binding (CDK15; binding, competition with immobilised ligand; 1 µM): 43%
CNC(=O)C1CCN(c2cc(C)c(F)cc2NC(=O)c2ccc(-c3cc(O)ccc3C)c(C)c2)CC1 — remaining binding (CDK15; binding, competition with immobilised ligand; 1 µM): 100%
C=CC(=O)N1CCc2ccc(-n3c(=O)ccc4cnc5ccc(-c6cnn(C)c6)cc5c43)cc21 — remaining binding (CDK15; KINOMEscan; 1 µM; baseline: DMSO control): 100%
CC(C)=CC1OC(C)(C)C2C=C3C(=O)C(Cl)=CC(O)C3C3C(O)C4OC4C(=O)C132 (stereo not shown) — remaining binding (CDK15; cell-free assay, competition with immobilised ligand; 10 µM): 98%
COc1cc(Nc2nccc(-c3cnn4nc(OC)ccc34)n2)cc(C(F)(F)F)c1 — remaining binding (CDK15; binding, competition with immobilised ligand; 1 µM): 90%
Nc1ncc2c(n1)-c1c([nH]c3ccc(C4=CCOCC4)cc13)CCC2 — remaining binding (CDK15; binding, competition with immobilised ligand; 1 µM): 98%
CS(=O)(=O)Nc1cccc(-c2csc3cnc(Nc4ccc(N5CCN(CCCCCOc6cccc7c6C(=O)N(C6CCC(=O)NC6=O)C7=O)CC5)cc4)nc23)c1 (stereo not shown) — inhibition (CDK15; probe labelling, inhibitor, KiNativ chemoproteomics; MOLT-4; 1 µM): 19.8%
C=CC(=O)N1CCCC(n2c(=O)c3ncccc3n(Cc3ccc(Oc4ccccc4)cc3)c2=O)C1 (stereo not shown) — remaining binding (CDK15; cell-free assay, competition with immobilised ligand; 1 µM): 92%
COc1cc(Nc2nc(C)cc(-c3cnn4nc(OC)ccc34)n2)cc(C(F)(F)F)c1 — remaining binding (CDK15; KINOMEscan; 1 µM, PFTAIRE2; baseline: DMSO): 90%
COc1c(Cl)cccc1Nc1c(-c2ccncc2C#C[C@@]2(C)CCCN2C(=O)/C=C/CN(C)C)[nH]c2c1C(=O)NCC2 — remaining binding (CDK15; binding, competition with immobilised ligand; 3 µM): 97%
CNC1C[S+]2CC[S+]3CC[S+](C1)[Ru-4]321([N]=C=S)[n]2c3ccc(OC)cc3c3c4c(c5cc(F)c[n+]1c5c32)C(=O)NC4=O (stereo not shown) — remaining binding (CDK15; KinomeScan; 0.1 µM; baseline: untreated): 89%

A few entries again:
C=CC(=O)N1CCCC(n2c(=O)c3ncccc3n(Cc3ccc(Oc4ccccc4)cc3)c2=O)C1 (stereo not shown) — remaining binding (CDK15; cell-free assay, competition with immobilised ligand; 1 µM): 92%
